Measurements from different studies.
Every numbered part comes from another study and shows a few of its results, in no order. Several values in a cell are separate wells, animals, samples, runs or records. Substitutions count along the parent as printed.
UniProt P17106, sequence (whole entry, looked up): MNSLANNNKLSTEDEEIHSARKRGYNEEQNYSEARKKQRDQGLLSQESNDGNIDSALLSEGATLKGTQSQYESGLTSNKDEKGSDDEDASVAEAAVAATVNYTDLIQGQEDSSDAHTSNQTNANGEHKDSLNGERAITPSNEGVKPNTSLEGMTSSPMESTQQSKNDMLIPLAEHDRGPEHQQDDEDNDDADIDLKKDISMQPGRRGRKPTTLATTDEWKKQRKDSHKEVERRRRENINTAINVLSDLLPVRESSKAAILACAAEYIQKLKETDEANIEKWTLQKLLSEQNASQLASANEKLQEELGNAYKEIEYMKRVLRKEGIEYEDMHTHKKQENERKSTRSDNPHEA

Block 1
Target: CCNA1, cyclin fold, Cln2 fusion (human)
Technique: yeast growth competition, sequencing
Sample: yeast
Notes: strong parent motif
Reference: not given
Reading: higher = stronger binding
Parent: viral docking peptide; TSVRRALFTGGSD
Substitution	normalised enrichment score
F8V	0.427
L7C	0.29
D13A	0.759
A6L	-0.0693
S12A	0.702
T9W	0.55
R4T	0.224
T9E	1.17

Block 2
Target: 5-hydroxytryptamine receptor 2A (HTR2A, Homo sapiens, UniProt P28223)
UniProt P28223, sequence (whole entry, looked up): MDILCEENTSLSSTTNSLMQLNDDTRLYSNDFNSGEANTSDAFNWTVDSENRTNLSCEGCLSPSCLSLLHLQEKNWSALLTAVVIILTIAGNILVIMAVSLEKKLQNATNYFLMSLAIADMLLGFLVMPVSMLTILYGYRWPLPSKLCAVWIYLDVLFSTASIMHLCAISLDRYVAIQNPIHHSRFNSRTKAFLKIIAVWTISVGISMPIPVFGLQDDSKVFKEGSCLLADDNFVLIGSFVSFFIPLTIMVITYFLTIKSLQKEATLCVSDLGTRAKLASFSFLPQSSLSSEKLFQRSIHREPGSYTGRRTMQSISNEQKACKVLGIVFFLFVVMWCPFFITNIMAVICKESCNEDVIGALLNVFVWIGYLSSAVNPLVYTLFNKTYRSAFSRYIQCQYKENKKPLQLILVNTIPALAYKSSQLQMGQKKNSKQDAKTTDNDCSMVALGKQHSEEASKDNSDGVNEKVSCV
Observed: ligand displacement
Concentration: 10 µM
SMILES	inhibition [%]
C[C@H](c1cccc(C#N)c1)n1cc(Cl)cc(C(N)=O)c1=N	-3.17
C[C@H](c1ccc(F)cc1)N(Cc1cccc(C(=O)O)c1)C(=O)c1cnc2ccccc2c1	-0.2
CNC(=O)c1ccc(Nc2ncc(C(F)(F)F)c(NCc3nccnc3N(C)S(C)(=O)=O)n2)cc1	0.93
CCOc1ccc(S(=O)(=O)Nc2ccc(Cl)cc2C#Cc2cnc(C(=O)O)cc2OC)c2ncccc12	-0.22
NC(=O)c1ccc2nc(-c3ccc(C4(N)CCC4)cc3)c(-c3ccccc3)n2n1	8.08
C[C@@H]1CN(c2cc(-c3n[nH]c4ccc(OC5(C)CC5)cc34)ncn2)C[C@H](C)O1	2.75
c1ccc(C2CCN(c3cnc4c(N5CCOCC5)nccn34)CC2)cc1	13.1
C[C@H](c1ccnc(Nc2nc3ccc(-c4cc(N(C)C)ncn4)cc3[nH]2)c1)N1CCN(C(=O)CC(F)(F)F)CC1	-11.1
CC(=O)Nc1nc(CN2CCC[C@H](Cc3cc(C)nc(C)c3)C2)cs1	6.45
C[C@@H](NC(=O)Nc1cc2[nH]ncc2c(CO)n1)c1ccccc1	7.44
CS(=O)(=O)NCC[C@H](NC(=O)c1cncc2c1cnn2-c1ccc(F)cc1)c1ccnc(S(C)(=O)=O)c1	11.8
C[C@@]1(Cc2ccc(C#N)cc2)C(=O)N(c2cc(Cl)cc(Cl)c2)c2ncc(C(=O)NC3(c4nc(C5CCC5)no4)CC3)n21	31.9
Nc1nc(NCc2ccccc2)nc(-c2cccc(CO)c2)n1	1.28
CCOc1cc(N2C3COCC2CN(C(=O)[C@H]2C[C@H](O)CN2c2ccc(Cl)cc2)C3)ccc1Cl	6.74
CCC(F)(F)c1cc(N2CCC(S(C)(=O)=O)CC2)nc2sc(C(N)=O)c(N)c12	6.1
CS(=O)(=O)N1CCCC(NC(=O)[C@H](CCC2CCCCC2)NC(=O)c2ccc(CNC(=O)c3cnc4ccccn34)cc2)C1 (stereo partly drawn)	3.03
Cc1cc(Nc2nccc(C)n2)cc(-c2cnc([C@@]3(O)CC[C@H](C(=O)O)C(C)(C)C3)s2)c1	-4.23
CN(C)C(=O)Cn1cc(-c2nc([C@@](C)(c3ccc(-c4cnc(N)nc4)cc3)C3CC3)no2)cn1	-11.9

Block 3
Target: HLA class I histocompatibility antigen, B alpha chain, allele B*46:01 (Homo sapiens, UniProt P01889)
Observed: peptide-MHC binding
Molecule type: peptide
Concentration: concentration not given
Sequence	binding
LVQPGRSL	inactive
YTNVVPLVY	active
KAFSPEVI	inactive

Further values, each from its own experiment
Molecule	tested on	test	system	conditions	scale	endpoint	result
CC(C)S(=O)(=O)c1cc2c(Nc3ccc4sc(C5CCCC5)nc4c3)ccnc2cc1OCCO	HT-29	necroptosis, CCK-8	–	0.041 µM, with: TNF-α, Smac mimetic, z-VAD	–	cell survival	33% and 31.7% and 30.4%
Cc1cc(C)c(C#N)c(N2C[C@@H]3CCN(C)[C@@H]3C2)n1	–	–	human, microsomes or S9	2 µM, 0.5 h	–	remaining compound	71.3%
NCCc1ccccn1	mouse MPNST tumor cells	high-content immunofluorescence imaging, item: nuclear SOX9	–	10 µM, 12 h, mean of 2 replicates	reference: DMSO control, higher = more nuclear SOX9	nuclear SOX9 intensity	98.3 % of DMSO
C[C@H]1CCC[C@H](O)CCCCCc2cc(O)cc(O)c2C(=O)O1	Sarcocystis neurona	parasite growth	–	10 µM, 96 h	–	inhibition	-5%
CCTAACTACTATAGTGACGTGACATAGCTTCGTACAGTCTTGATTCGCTTGACGCTGCTG	Centromere-binding protein 1, full length, N-terminal tag (CBF1, Saccharomyces cerevisiae, UniProt P17106, residues 1-351)	protein-binding microarray	double-stranded DNA, one strand shown, in vitro	0.8 µM, whole 60-bp probe, no competitor	higher = stronger binding	fluorescence intensity	723 a.u.
N#Cc1c(N)nc(SCC(N)=O)c(C#N)c1-c1ccc(OCC2CC2)cc1	mouse MPNST tumor cells	high-content immunofluorescence imaging, item: nuclear SOX9	–	10 µM, 12 h, mean of 2 replicates	reference: DMSO control, higher = more nuclear SOX9	nuclear SOX9 intensity	115 % of DMSO
O=c1c2ccccc2nc(-c2ccccc2)n1-c1ccncc1	–	–	human, microsomes or S9	2 µM, 0.5 h	–	remaining compound	93.8%

A few entries again (block 2):
SMILES	inhibition [%]
c1ccc(C2CCN(c3cnc4c(N5CCOCC5)nccn34)CC2)cc1	13.1
C[C@H](c1ccnc(Nc2nc3ccc(-c4cc(N(C)C)ncn4)cc3[nH]2)c1)N1CCN(C(=O)CC(F)(F)F)CC1	-11.1
CC(=O)Nc1nc(CN2CCC[C@H](Cc3cc(C)nc(C)c3)C2)cs1	6.45
C[C@@H](NC(=O)Nc1cc2[nH]ncc2c(CO)n1)c1ccccc1	7.44
